Assay results collected from several papers.
Every numbered part comes from another study and shows a few of its results, in no order.

Sample 1
Target: Prothrombin, mature alpha-thrombin (F2, Homo sapiens, UniProt P00734)
Method: aptamer microarray, sandwich
Form: DNA with 2'F-ANA
Medium: in vitro
Concentration: 200 nM
Setting: whole 15-mer aptamer, many near background
Together with: Cy3 exosite-II aptamer, 400 nM
Direction: higher = stronger binding
Oligonucleotide: GGTTGGTGTGGTTGG
Modification	mean fluorescence intensity [a.u.]
2'F-ANA at 1 2 7 8 10 11 12 13 15	77.4
2'F-ANA at 2 4 7 9 10 11 13 14	148
2'F-ANA at 4 5 6 7	66.1
2'F-ANA at 2 3 5 6 10 12 14 15	67
2'F-ANA at 2 3 4 7 9 12 15	811
2'F-ANA at 1 2 3 4 6 7 8 9 11 12 13 14 15	77.9
2'F-ANA at 2 3 4 9 10 13 15	213
2'F-ANA at 1 2 3 4 11 14	64.1
2'F-ANA at 1 2 3 4 5 8 9 12 14 15	48.9
2'F-ANA at 2 4 5 9 12 15	157
2'F-ANA at 3 4 7 8 12 13 14	460
2'F-ANA at 3 4 7 11 12 14 15	433
2'F-ANA at 2 3 4 5 6 8 9 10 15	50.9
2'F-ANA at 2 5 6 9 11 13 14 15	48.5
2'F-ANA at 1 5 6 7 8 12 13 14 15	51.2
2'F-ANA at 1 2 5 8 11 12 14	47.9

Sample 2
Target: Centromere-binding protein 1, full length, His-tagged (CBF1, Saccharomyces cerevisiae, UniProt P17106, residues 1-351)
UniProt P17106, sequence (whole entry, looked up): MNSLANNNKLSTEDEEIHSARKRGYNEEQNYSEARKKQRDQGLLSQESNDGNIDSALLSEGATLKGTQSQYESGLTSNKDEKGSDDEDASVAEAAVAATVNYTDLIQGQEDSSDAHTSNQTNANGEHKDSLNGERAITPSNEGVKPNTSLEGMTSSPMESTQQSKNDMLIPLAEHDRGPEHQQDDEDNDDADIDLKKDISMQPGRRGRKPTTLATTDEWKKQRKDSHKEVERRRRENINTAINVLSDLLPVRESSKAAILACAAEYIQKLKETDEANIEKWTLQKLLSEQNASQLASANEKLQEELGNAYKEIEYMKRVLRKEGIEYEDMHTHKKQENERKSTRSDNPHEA
Method: competition protein-binding microarray
Form: double-stranded DNA, one strand shown
Medium: in vitro
Concentration: 2 µM
Setting: whole 60-bp probe, lowest competitor level
Together with: Pho4 competitor, 0.05 µM
Direction: higher = stronger binding
Constant ends, left off below: … GTCTTGATTCGCTTGACGCTGCTG
Oligonucleotide	fluorescence intensity [a.u.]
GTCTTGTCTCATTGCCACGTGGGTGTCCCCACTTCA	741
CATACCCAACCTTGTCACCATACTTAAGATATTTGT	86.9
GGGTACTGGTGCCGTCACGTGTGGACCATCTAATTC	1940
CTAACGAAGGTTTGGGGGGTGGGTGACAAGCCAAGT	112
CGGGGTTAAGTTTGTTCAGTGGGTGGCTTGCAGCAG	63.4
CGGGGTTAAGTTTGACCCGTGGGTGGCTTGCAGCAG	81.8
AAAAGCGTCAAAAAACTCGTGTAAGAGGTCAAAAAG	99.6
GTGATATATTTGATACTTTTGAGATATCCTTGAAAG	116
CTAACGAAGGTTTGGCAGGTGGGTGACAAGCCAAGT	71
AAAGCGGTAATTTTTCACGTGCGGTCAAATATCTAT	1360
CATACCCAACCTTGCAACGTGGGTGAAGATATTTGT	98.7
TTGAACGGTGGTACCCACGCTGGTGGTGCTTTGGCT	46.3
GAGGCAAAATAAGATCGTGTGTTTCAAATTGCCTTA	87.1
TATTTGGCCTTTTTGCACGTCGACTGGGCCATTTCC	77.3
CTTTCCCGATCTTGCTTCGTGGGTGTAGCACATTTG	76.4
AGAGTAGTCAGTCAACACGTTACCTCTGGTAACAGA	122
TGGTAGTAACCAAAGCACGCTTGTCCTTGTGTTCGG	63.8
TTCCTGGTAGTCTCGCATACGTTTGTCAGTGGCATT	81.5
AAATTACTAAGTTTTCACGTGAAGTACCCCGTATGA	801
CCTTTGGAGCAGAGGCACCTGATAATGGAAGCGGTG	110
GGATTTATAGTACCGTGCGTGCAAACTTAGACTGAA	152
CGTCCTAGTGATTGCACGGTGGGTGCCATGAGGAAG	87.6
TGCGCAACAACTTGCATAGTGGGTGTATGTCTAGAA	65.1
CTTCTGTAAATTTGCCCGGTGGGTGGACGCGCCCCG	68.4
GAATGACTAAAGTCCCACGTTTTTCCCACTTTTAGT	116

Sample 3
Target: Histone acetyltransferase KAT6A, winged helix 2, GST fusion (KAT6A, Homo sapiens, UniProt Q92794, residues 85-181)
Method: protein binding microarray
Form: double-stranded DNA, one strand shown
Medium: in vitro
Concentration: not given
Setting: 8-mer, flanks averaged, mean of 2 arrays, mostly near background
Relative to: not given
Direction: higher = stronger binding
Target sequence (chain): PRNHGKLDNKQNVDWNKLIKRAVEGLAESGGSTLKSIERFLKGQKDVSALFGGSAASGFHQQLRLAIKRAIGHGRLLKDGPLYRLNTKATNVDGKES
Oligonucleotide	E-score
AATGCTGA	-0.00511
AAGGACGG	-0.162
GGCAGATA	0.00498
AACCCTAC	-0.187
ACTTACAA	0.0219
ACAGTAAT	-0.0821
CGAGGCCG	0.0957
AGATCGTC	-0.16
GATTAAGC	-0.0527
GCCATGGA	-0.0912
ATGGCACC	-0.103
CCCACTTA	0.0289
CATCACCG	-0.106
CACACTAC	0.00555
CCTGAAAC	0.0984
ACTACATC	-0.0581
CAACCCTG	0.124
CTCGACAC	0.127
CAGCACTC	-0.0424
ACACGACT	-0.185
ACTCCCTG	-0.0165
AGGCAGCA	0.0746
CAATGAGG	-0.123

Sample 4
Target: RING finger protein unkempt homolog, zinc fingers 1-6, GST-SBP tag (UNK, Homo sapiens, UniProt Q9C0B0, residues 30-357)
Method: RNA Bind-n-Seq
Form: RNA
Medium: in vitro
Concentration: not given
Setting: RNA with constant flanks, human and mouse sites, ends assumed
Relative to: input RNA pool
Direction: higher = stronger binding
Constant ends, left off below: GGGAGUUCUACAGUCCGACGAUC … CAACAGAGGAUUGAGCAUCA
Residues (chain): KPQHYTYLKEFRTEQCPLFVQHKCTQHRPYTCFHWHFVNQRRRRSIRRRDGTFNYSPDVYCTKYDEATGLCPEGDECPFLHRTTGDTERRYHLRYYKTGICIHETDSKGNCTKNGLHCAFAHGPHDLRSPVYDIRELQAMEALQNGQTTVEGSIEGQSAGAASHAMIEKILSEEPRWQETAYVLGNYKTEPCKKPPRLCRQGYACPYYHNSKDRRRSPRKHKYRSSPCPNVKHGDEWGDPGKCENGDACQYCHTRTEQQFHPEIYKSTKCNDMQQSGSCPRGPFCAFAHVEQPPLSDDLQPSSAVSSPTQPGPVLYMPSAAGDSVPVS
Oligonucleotide	bound/input enrichment
GGAAGACCGAGCCCUCUUACUUCGAAUUAUGGAAAGCAUUGAAGACUUUGCUCAAGAGCUAGUUGAAUGCAAGUCAGGCAGAGGGAGCCUAUCACAAGAAAAGGAAAUGAUGCAAAUUCU	1.05 ratio
AAGAAGAAGCAAGGUGAAGAUAACUCUACUGCACAGGACACAGAAGAAUUAGAAAAAGAGAUUAGAGAAGACCUUCCAGUGAAUACCUCUAAAACCCGUCCAAAACAGGAAAAAGCUUUU	1.26 ratio
AAAGGAAUUACCGAACAGCAAAAAGAAGGUCUUGAGAUAGUGAAAAUGGUGAUGAUAUCUUUAGAAGGUGAAGAUGGGUUGGAUGAAAUUUAUUCAUUCAGUGAGAGUCUGAGAAAACUG	0.563 ratio
GGGUCAGCUGCCGCCACUUCUAAUCCUCAUCAUGACAACGUCAGGUAUGGCAUUUCAAACCUAGAUGCAGCCAUUGAAGGAGCUUCAGAUGACAUGACUGUGGUAGAUGCAGCUUCAUUA	0.149 ratio
AUAAAUGUUUUUCUUAAUUAUUAAGAAGUGUUACCUUAUUAAAAUGACCACCAUUCUAAACCAUUUUUCAGUGGUCUGGAUACGAAGUUUACAGUUUCAUACCAACUAUCUAAAACCUAA	0.651 ratio
GAAAGACAUGGUAUGCUGUCUUUGUGAUUAAUUUUGUGUCUAACUUUAAGUACUAUAUUUGGACUUAUUUAUUUGAUUGGGCUUAACUGAGUUGUAUAAAUUUUAUUUUCAUAUUAAGUC	0.572 ratio
UUGGAUGGCCUAUCAUGUAUCCUCAACUUUCUAAAGACCAUGGACUACGAGACCUCAGAGUCUCGAAUACAUACUUCUCUCAUUGGCUGUAUAAAGGCGUUAAUGAACAACUCUCAAGGC	0.0943 ratio
CCCUUGCCUCACCUGUAUUGCUGUGGAUGUGUUUUGUGGGUUUUUCAUUCGAUUUUACAAAAUAGGGAAAGGCACUUCCAGUUGUAUUUAGUAGGCAGUUGUUGUGAAUCAUUUUUUUCU	0.847 ratio
UGAUUGUGACGUCACAUUCUUCAGCAUUGUCAUGAGAUUAAUAUACUUAAAUCUACUACUCAUUGGAUUGCCGGGGAUGUCCCUUUAAAAGGACUGCUGCCUUCAGCUGAAAAUGUAAUG	0.135 ratio
CUUGACCUCAGGCCUACCUCUGCCUUCCAAGUGCCAGGAUUAAAGGCGUGUGCCACCAUCACUCAGUUGCACAGUUCUUAAAUAUAAAGUGUGAACAUGUAUUUCUUUGAAAGAAAUAUU	0.0877 ratio
AAUGAGAAUAAUAUUCUUGCAAAAAAGAAACCCUAUAAGUGUGAUAAAUGUAGAAAAGCCUUUAUUCAUAGAUCAUCGCUUACUAAACAUGAGAAAACACAUAAAGGAGAGGGAGCUUUC	0.343 ratio

Excerpt of the above (sample 4):
Oligonucleotide	bound/input enrichment
AAAGGAAUUACCGAACAGCAAAAAGAAGGUCUUGAGAUAGUGAAAAUGGUGAUGAUAUCUUUAGAAGGUGAAGAUGGGUUGGAUGAAAUUUAUUCAUUCAGUGAGAGUCUGAGAAAACUG	0.563 ratio
GGGUCAGCUGCCGCCACUUCUAAUCCUCAUCAUGACAACGUCAGGUAUGGCAUUUCAAACCUAGAUGCAGCCAUUGAAGGAGCUUCAGAUGACAUGACUGUGGUAGAUGCAGCUUCAUUA	0.149 ratio
AUAAAUGUUUUUCUUAAUUAUUAAGAAGUGUUACCUUAUUAAAAUGACCACCAUUCUAAACCAUUUUUCAGUGGUCUGGAUACGAAGUUUACAGUUUCAUACCAACUAUCUAAAACCUAA	0.651 ratio
GAAAGACAUGGUAUGCUGUCUUUGUGAUUAAUUUUGUGUCUAACUUUAAGUACUAUAUUUGGACUUAUUUAUUUGAUUGGGCUUAACUGAGUUGUAUAAAUUUUAUUUUCAUAUUAAGUC	0.572 ratio
UUGGAUGGCCUAUCAUGUAUCCUCAACUUUCUAAAGACCAUGGACUACGAGACCUCAGAGUCUCGAAUACAUACUUCUCUCAUUGGCUGUAUAAAGGCGUUAAUGAACAACUCUCAAGGC	0.0943 ratio
CCCUUGCCUCACCUGUAUUGCUGUGGAUGUGUUUUGUGGGUUUUUCAUUCGAUUUUACAAAAUAGGGAAAGGCACUUCCAGUUGUAUUUAGUAGGCAGUUGUUGUGAAUCAUUUUUUUCU	0.847 ratio
